Measured values collected from several papers.

Structure (SMILES) | assay | test system | setting | measurement | result
FC(F)(F)c1ccc(CNc2ccc(Cc3c[nH]c4ncc(Cl)cc34)cn2)cn1 | item: gastroesophageal reflux disease | non-TGCT solid tumour patients | oral, 1000 mg/day, grade 3 or higher | patients with treatment-related adverse event | 0%
COc1cc2nccc(Oc3ccc(NC(=O)c4cc5c(n(-c6ccccc6)c4=O)CCCC5=O)nc3)c2cc1OC |  | patients with relapsed/refractory AML | oral, 10 mg once daily | patients with drug-related serious TEAEs | 14.3%
O=C(Nc1nc2cccc(-c3ccc(CN4CCS(=O)(=O)CC4)cc3)n2n1)C1CC1 |  | rheumatoid arthritis patients | oral, 100 mg twice daily, 4 weeks, regardless of relatedness | patients with administration site disorders | 8.3%
CNC(=O)c1cc(Oc2ccc(NC(=O)Nc3cc(C(C)(C)C)nn3-c3ccc4ncccc4c3)c(F)c2)ccn1 |  | patients | oral, dose not given, cycles 1 and 2, Low AUC subgroup | patients with grade 1 cardiac disorders | 7%
NC(=O)N1c2ccccc2C=Cc2ccccc21 |  | male patients | oral, dose not given, on-treatment adverse events | patients with Fatigue | 27%
C[C@@H](c1ccc2nccn2c1)n1nnc2ncc(-c3cnn(C)c3)nc21 | item: Pain grade ≥3 | EGFR-mutant MET-altered NSCLC | oral, study | patients with treatment-related AEs | 0%
C[C@@H](Nc1cc(F)cc(F)c1)c1cc(C(=O)N(C)C)cc2c(=O)cc(N3CCOCC3)oc12 | item: Nausea | advanced solid tumour patients | oral, dose not given, dose finding | patients discontinuing for AE | 1.6%
CC(C)C[C@H](NC(=O)CNC(=O)c1cc(Cl)ccc1Cl)B(O)O | item: Hypokalaemia, all grades | newly diagnosed multiple myeloma patients | oral, dose not given, maintenance phase, new onset, cycle 17 or later | patients with adverse event | 11%
CNC(=O)c1ccc(-c2cnc3ncc(Cc4ccc5ncccc5c4)n3n2)cc1F | item: Vomiting, all grades | cancer patients | oral, dose not given, dose escalation, any causality | patients with adverse event | 40%
COc1cc(Nc2ncc3c(n2)-c2ccc(Cl)cc2C(c2c(F)cccc2OC)=NC3)ccc1C(=O)O | item: Alopecia, all grades | cancer patients, phase 1/2 | oral, dose not given, added: pembrolizumab | patients with adverse event | 21%
CCOc1c([C@H](C)n2nc(C)c3c(N)ncnc32)cc(Cl)c(F)c1[C@@H]1CNC(=O)C1 | ECG | previously treated B-cell malignancy patients | oral, 10 mg once daily, baseline below thresholds | patients with HR above 100 bpm | 0%
Cc1cc(NC2CCN(C(=O)OC3CCN(C(=O)/C=C/CN(C)C)C3)CC2)n2ncc(C(C)C)c2n1 (stereo not drawn) | Phase I dose escalation CTCAE v4.0, item: maculo-papular rash | patients with advanced solid tumours | dose not given, TIW dosing grade 3 or higher | patients with adverse event | 0%
Cc1cc(-c2nnc(N)nc2-c2ccc(F)cc2)cc(Cl)n1 | item: Fatigue | other solid tumours, post-IO | oral, 100 mg once daily, all grades | patients with treatment-related AE | 23.8%
C=CC(=O)Nc1cc(Nc2nccc(-c3cn(C)c4ccccc34)n2)c(OC)cc1N(C)CCN(C)C | item: Anemia grade ≥3 | EGFR-mutant MET-altered NSCLC | oral, study | patients with treatment-related AEs | 0%
COc1ccc([C@@H](O)c2cc(-c3ncnc4cc(N5CCOCC5)ccc34)c(F)cc2Cl)nn1 |  | locally advanced rectal cancer patients | 50 mg, drug-related adverse events, added: capecitabine and radiotherapy | patients with diarrhea | 100%

Some of these lines once more:
Structure (SMILES) | assay | test system | setting | measurement | result
CC(C)C[C@H](NC(=O)CNC(=O)c1cc(Cl)ccc1Cl)B(O)O | item: Hypokalaemia, all grades | newly diagnosed multiple myeloma patients | oral, dose not given, maintenance phase, new onset, cycle 17 or later | patients with adverse event | 11%
